Results pooled from the literature.
Every numbered part comes from another study and shows a few of its results, in no order. Substitutions count along the parent as printed.

Series 1 — target: CCND1, cyclin fold, Cln2 fusion (human); technique: yeast growth competition, sequencing; sample: yeast; setting: weak parent motif; baseline: not given; reading: higher = stronger binding
Parent: MASTL docking peptide (human); PMIAKNLMCELDE
Substitution | normalised enrichment score
PMIASNLMCELDE [K5S] | -0.63
PMGAKNLMCELDE [I3G] | 0.371
PPIAKNLMCELDE [M2P] | 0.378
PMIAKNLMQELDE [C9Q] | 0.326
PMNAKNLMCELDE [I3N] | 0.311
PTIAKNLMCELDE [M2T] | 0.416
PMIAKGLMCELDE [N6G] | -0.102

Series 2 — technique: universal PBM; form: double-stranded DNA, one strand shown; sample: in vitro; concentration: not given; reading: higher = stronger binding
Target: Sal-like protein 4, full length isoform B (SALL4, Homo sapiens, UniProt Q9UJQ4-2, residues 1-616)
Setting: 8-mer, flanks averaged, mean of replicates
Target sequence (chain): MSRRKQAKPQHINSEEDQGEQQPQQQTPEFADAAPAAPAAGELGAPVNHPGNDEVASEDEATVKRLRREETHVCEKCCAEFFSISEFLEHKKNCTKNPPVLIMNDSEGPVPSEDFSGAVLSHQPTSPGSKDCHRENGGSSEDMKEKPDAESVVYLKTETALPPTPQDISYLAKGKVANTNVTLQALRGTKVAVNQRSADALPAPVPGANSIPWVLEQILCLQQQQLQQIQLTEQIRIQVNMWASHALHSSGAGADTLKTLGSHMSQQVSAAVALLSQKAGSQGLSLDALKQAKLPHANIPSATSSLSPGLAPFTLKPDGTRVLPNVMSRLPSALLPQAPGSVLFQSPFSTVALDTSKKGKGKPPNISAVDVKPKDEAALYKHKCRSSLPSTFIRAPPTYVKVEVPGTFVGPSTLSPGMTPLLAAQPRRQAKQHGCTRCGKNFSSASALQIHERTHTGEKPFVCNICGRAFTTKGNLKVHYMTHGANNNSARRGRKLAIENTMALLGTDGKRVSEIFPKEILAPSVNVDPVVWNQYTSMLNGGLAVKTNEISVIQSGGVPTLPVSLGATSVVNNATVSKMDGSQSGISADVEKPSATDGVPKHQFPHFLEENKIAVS
Strand | E-score
CACGGACA | -0.153
CCTAACAG | -0.0983
TGGGCCCA | -0.308
GAGGGAGA | -0.127
CGGGAAGA | 0.0125
CTAAGGTC | -0.0711
ATTATCTG | 0.221

Series 3 — technique: protein binding microarray; form: double-stranded DNA, one strand shown; sample: in vitro; concentration: not given; baseline: not given; reading: higher = stronger binding
Target: Histone acetyltransferase KAT6A, both winged helices, GST fusion (KAT6A, Homo sapiens, UniProt Q92794, residues 1-181)
Setting: 8-mer, flanks averaged, mean of 2 arrays, mostly near background
Construct (chain): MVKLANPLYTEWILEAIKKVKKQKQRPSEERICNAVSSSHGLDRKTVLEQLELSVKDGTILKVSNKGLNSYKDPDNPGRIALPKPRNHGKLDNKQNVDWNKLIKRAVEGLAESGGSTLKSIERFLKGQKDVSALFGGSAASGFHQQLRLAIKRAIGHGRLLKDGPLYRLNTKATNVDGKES
Strand | E-score
AGGGTATC | -0.176
GAAACGTA | 0.0818
CCGACGCG | 0.371
CCAGCTGA | -0.141
ATAAGCGA | 0.0578
CTCTATTA | -0.287
GGACGCAC | 0.194
AGGCACGA | -0.0996
ACCCCAGA | -0.218
GCGAACAA | 0.128
GGTAGCAA | -0.0958

Single results of other studies
Molecule | target | assay | test system | conditions | scale | endpoint | result
PhoQ, residues 284 288 289 292 302 303 TTSMTC | PhoP, residues 12 14 15 18 19 LQHIR (Escherichia coli, UniProt P23836) | Sort-seq, item: YFP reporter | E. coli | PhoQ-PhoP variant library, added: 10 µM Mg2+ | baseline: high Mg2+ state, higher = stronger signaling | fold induction | 14

A few entries again (series 1):
Substitution | normalised enrichment score
PPIAKNLMCELDE [M2P] | 0.378
PMIAKGLMCELDE [N6G] | -0.102
PMGAKNLMCELDE [I3G] | 0.371
PMNAKNLMCELDE [I3N] | 0.311
